Measurements collected from several papers.
Parts stem from different laboratories: compare values within a part only.

Series 1
Target: Interferon regulatory factor 7, full length, phosphomimetic (IRF7, Homo sapiens, UniProt Q92985, residues 1-503, S471D/S472D/S475D/S476D/S477D/S483D/S484D/S487D)
Method: protein-binding microarray
Form: double-stranded DNA, one strand shown
Matrix: in vitro
Tested at: 2200 nM top
Setting: 60-bp whole probe
With: salmon DNA 0.4 mg/ml
Relative to: random background probes
Direction: higher = stronger binding
Constant ends, left off below: GCCTAGCAC … GTCTTGATTCGCTTGACGCTGCTG
Construct (chain): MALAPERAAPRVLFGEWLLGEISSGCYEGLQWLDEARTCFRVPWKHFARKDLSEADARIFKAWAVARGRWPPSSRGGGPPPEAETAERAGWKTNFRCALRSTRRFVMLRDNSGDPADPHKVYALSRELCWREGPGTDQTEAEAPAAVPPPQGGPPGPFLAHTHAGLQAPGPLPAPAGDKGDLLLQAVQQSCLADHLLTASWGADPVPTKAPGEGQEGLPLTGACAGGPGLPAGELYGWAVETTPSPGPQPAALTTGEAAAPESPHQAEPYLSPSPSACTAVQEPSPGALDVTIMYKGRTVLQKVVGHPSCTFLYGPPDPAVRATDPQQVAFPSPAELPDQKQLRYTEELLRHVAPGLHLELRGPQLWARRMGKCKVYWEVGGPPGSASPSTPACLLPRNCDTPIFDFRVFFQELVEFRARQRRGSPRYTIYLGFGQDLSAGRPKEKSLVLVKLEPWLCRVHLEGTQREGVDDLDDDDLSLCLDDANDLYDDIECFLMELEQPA
Oligonucleotide | fitted relative affinity [z-score]
TGTACTTTCTATCTCTGTTTGTGCTAG | 5.64
TAAAATTTTGCTTCTAGAACGTGCTAG | 0.114
GACGATTTCAGTATCCAGACGTGCTAG | 1.23
GCAAGAGGAAAGGAACATCAGTGCTAG | -0.326
CTCCCTCTGTAAGTCAGCACGTGCTAG | 1.05
GACGACCTGAGTATCGAGACGTGCTAG | 0.107
ACTGAAATCACCCTTGGAAGTGTGCTA | 0.192
TTAGGACTGGGGACTGCGTTAGTGCTA | -0.744
TTAGGTTCCAGTTTCGGTTAGTGCTAG | 8.33
TTAGCACTGAGACTGGATTAGTGCTAG | -0.275
TCATAGATGCCTTTCTCACTGTGCTAG | 0.813
TTCGAACTGGGGACTGGATTAGTGCTA | -0.0664
GACGGTATCGGTATCGGCACGTGCTAG | 0.432
TCACTTTCAGTTCTCCCACTGTGCTAG | 11.3
GACGAACCGAGTATCGAGACGTGCTAG | 0.143
GACAATATCGGGTTTCGAGACGTGCTA | 1.8
TTTCATATATATATGAATATGTGCTAG | 2.24
TTAGGTTTCGGTCCCGGTTAGTGCTAG | 5.25
TTAGGATTGCTACTGCTTTAGTGCTAG | 0.0597
GACGGTATCGGGTATCGGGAAGTGCTA | -0.122
TCATTCCTCTTTCTTTGACTGTGCTAG | 2.68
GACTGACTGGACTTTCGGGACGTGCTA | 2.32
TTAGGTATCGGTTTCGGTTAGTGCTAG | 7.49
TCAGGTTTCGGTTTCGGTTAGTGCTAG | 16.6
TGAGGTTTCCTACTGCTTTAGTGCTAG | 1.06

Series 2
Target: Ras GTPase-activating protein-binding protein 1, full length (G3BP1, Homo sapiens, UniProt Q13283)
Sequence of UniProt Q13283 (whole entry, looked up): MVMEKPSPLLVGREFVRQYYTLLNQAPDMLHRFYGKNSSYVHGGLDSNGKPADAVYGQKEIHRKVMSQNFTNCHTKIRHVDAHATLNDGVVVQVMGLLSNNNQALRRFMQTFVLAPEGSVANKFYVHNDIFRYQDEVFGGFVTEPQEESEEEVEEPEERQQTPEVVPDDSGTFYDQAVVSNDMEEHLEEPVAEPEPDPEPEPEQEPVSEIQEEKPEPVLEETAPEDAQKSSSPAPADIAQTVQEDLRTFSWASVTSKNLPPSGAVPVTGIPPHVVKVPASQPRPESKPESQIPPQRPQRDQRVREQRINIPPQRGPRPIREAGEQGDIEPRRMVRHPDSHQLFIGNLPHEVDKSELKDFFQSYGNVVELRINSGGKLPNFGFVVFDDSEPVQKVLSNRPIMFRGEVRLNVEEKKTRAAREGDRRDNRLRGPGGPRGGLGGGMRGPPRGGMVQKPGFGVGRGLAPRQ
Method: RNA Bind-n-Seq
Form: RNA
Matrix: in vitro
Tested at: 200 nM
Setting: whole 134-nt RNA, ends assumed
With: 150 mM LiCl
Relative to: input library
Direction: higher = stronger binding
Each molecule: 7-deaza-guanosine replaces G
Constant ends, left off below: GGGAGUUCUACAGUCCGACGAUC … UGGAAUUCUCGGGUGUCAAGG
Oligonucleotide | log2 enrichment
CUGUGCUACACAUCGUAUGUACCGAAUCGGGGAAAAAGGGGAAAAAGGGGUUUUUUUGGGGAAAGUAUUAUGUUACGCCGUUCGGAUCUG | -0.0416
GUCCUGUGCUACACAUCGUAUGUACCGAAUCGGGUUUUUUGGGUUUUUUGGUUUUUUGGAAAGUAUUAUGUUACGCCGUUCGGAUCUGCA | -1.23
GUCCUGUGCUACACAUCGUAUGUACCGAAUCGGGAAAAAGGGGAAAAAGGAAAAAGGGAAAGUAUUAUGUUACGCCGUUCGGAUCUGCAC | 0.135
CAAGUCCUGUGCUACACAUCGUAUGUACCGAAUCGGGAAAGGGAAAGGGGAAAGGGAAAGUAUUAUGUUACGCCGUUCGGAUCUGCACUU | -0.734
CACAGACAACACGCACCCACACAGACACAGAGGGAAGGGGUUGGGAUGGGGCCAGGGUGCACAGCAGGGCGGGGUAGGACCCCAGCCCCU | 0.911
CUGUGCUACACAUCGUAUGUACCGAAUCGGGUUUUUUUGGGGUUUUUUUGGGUUUUUUUGGAAAGUAUUAUGUUACGCCGUUCGGAUCUG | 1.49
CUCAAGUCCUGUGCUACACAUCGUAUGUACCGAAUCGGGCCGGGCCGGCCGGGAAAGUAUUAUGUUACGCCGUUCGGAUCUGCACUUCCA | 0.923
AAGUCCUGUGCUACACAUCGUAUGUACCGAAUCGGGGUGGGGUGGGGAAAAAGGGGAAAGUAUUAUGUUACGCCGUUCGGAUCUGCACUU | -0.407
UCCUGUGCUACACAUCGUAUGUACCGAAUCGGGGAAAGGGGUUUUUGGGGUUUUUGGGGAAAGUAUUAUGUUACGCCGUUCGGAUCUGCA | -0.0381
AGUCCUGUGCUACACAUCGUAUGUACCGAAUCGGGUUUUUUUGGGUUUUUGGGUGGGAAAGUAUUAUGUUACGCCGUUCGGAUCUGCACU | -0.459
ACCAUGCAGGUGGGAAACUUUGGGAAGUGGGGCAAGGGGGGGAUAGGGAGGGGGGUAACACUUUGGGAACAGGUGGUCCCAGGUCGUUUC | 0.303

Series 3
Target: Histone acetyltransferase KAT6A, both winged helices, GST fusion (KAT6A, Homo sapiens, UniProt Q92794, residues 1-181)
Method: protein binding microarray
Form: double-stranded DNA, one strand shown
Matrix: in vitro
Tested at: not given
Setting: 8-mer, flanks averaged, mean of 2 arrays, mostly near background
Relative to: not given
Direction: higher = stronger binding
Target sequence (chain): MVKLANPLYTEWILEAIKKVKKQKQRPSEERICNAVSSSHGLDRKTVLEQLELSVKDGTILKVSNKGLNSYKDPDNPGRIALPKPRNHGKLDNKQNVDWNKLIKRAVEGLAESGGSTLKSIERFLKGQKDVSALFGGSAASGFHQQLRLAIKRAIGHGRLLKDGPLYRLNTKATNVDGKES
Oligonucleotide | E-score
CGTTGAAC | 0.132
GACTTCGA | -0.0113
ACTGAGCT | -0.067
ATATATTC | 0.0223
CCGCTAAG | 0.272
CGATGTCA | 0.0424
GCCACACA | -0.18
CGCTATAA | 0.132
GGCTTAAC | -0.0348
GGACTGCC | 0.0109
CCTAATGA | -0.247
GCCTCGGA | 0.136
CGGGAACG | 0.343
CCCGTCAC | 0.222
ACAATAGT | -0.108
TAAATGAA | -0.136
CCCGCCTC | 0.177
TATGCCCA | -0.154
ATGCGACA | 0.208
AAAACACT | 0.0844
GAGCAATC | 0.0555
CGTTCGTA | 0.121
CAAAGTAA | -0.0582
ATTTATCA | 0.00839
GGTTAGGA | -0.177

Series 4
Target: RNA binding protein fox-1 homolog 2, RRM domain, GST-SBP tag (RBFOX2, Homo sapiens, UniProt O43251-10, residues 100-194)
Method: RNA Bind-n-Seq
Form: RNA
Matrix: in vitro
Tested at: 365 nM
Setting: natural RNA segment, single round, ends assumed
Relative to: no-protein control
Direction: higher = stronger binding
Constant ends, left off below: GGGAGUUCUACAGUCCGACGAUC … UGGAAUUCUCGGGUGCCAA
Residues (chain): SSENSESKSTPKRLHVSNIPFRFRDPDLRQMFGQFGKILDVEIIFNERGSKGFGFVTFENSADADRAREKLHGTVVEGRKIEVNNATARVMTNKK
Oligonucleotide | RBNS enrichment (R)
ACAAGACCACACUUUGGGACUUGGGAGCUGGGGCUGAAGUUGCUCUGUACCCAUGAACUCCCAGUUUGCGAAUUAUAGAGACAAUCUAUUUUGUUACUUGCACUUGUUAU | 1.33
AGACAAAGAAACAAAUUCCUAUGACCAAAUUGCUUGCCUACAGUUCCCUGCAGUAAUUGUAUGAUCUCACCCAGUGUGCAAUUUGUGAAAAUGAACCAAAUGUCAUUACU | 0.514
GCAGUUACUUCAGGUUGAAGUUGCCUUGAUCGCCUGCCCCUCAUCAGGGCUUUUGCUUUUCUUCAAAGUACUGAGGAUCCAACCCAGUGCCUUACACGCCAGGCAAGUGU | 0.361
CCUCCCUGGCCCCAGGCAGCCCUUUUCCCUCCAGUGGCACCUCCUGGAAACAGUCCACUUGGGCGCAAAACCCAGUGCCUUCCAAAUGAGCUGCAGUCCCCAGGCCAUGA | 0.543
CCCUUAUUUUGUGUUUUCCAUCCCUCUCCCUUAACAGGAUUGAAAUAAAACAUGCUUCUGUUUUUGUAAAAAUAAUUUUUCCUUUACACUGGAGAUUUUAUUCUAUCAGU | 0.994
ACUAUGUUAUUUCCUUUGUUCUGGUAUCCUUCCCUUGGAGGACCUUCUCUGAGUAGUGGCUCCCCAGGUUUGUCCUUUGAGCUGAGGCAGGAGGCUCACCCAUUCUUCUG | 0.416
UGGUUCUGCAGUCUGGUGUAGACACUGGAAUAACAGCACAGAAAAAUCUAUGACUCCCAAUAUCUUCUAGAAUAAAGAAUUUUCCCUCUUUAACACAAGGGCCCUCCUUG | 0.353
UUUUUAUUUGGGCAUAAAAGUUGUUGCCUUUAUUUGUAAAGCUGUUAUAAAUAUAUAUUAUAUAAAUAUAUGACAAAGGAAAAUGUUUCAGAUGUCUAUUUGUAUAAUUA | 1.88
GAAACGGCACGACCCCUUCUCAAGCUGGCUCACUCAGACACAUUGGGACAAACCCUGGACAGCCAUGCCAGAGAGAGGCCUUUGACCGGCCCCAGAGCUAAAAGCACCAG | 0.448
UGGCCUUUCAUGACCCUGGCUUACUGUGUAAAUGCUGUGCCCUUGGGUACUGGAUAGGAACACUGAGAAAGCAAAGCCAAUAGCCGUGAGGACGAGGAAGUUUCUGCCAC | 0.261
ACCAAGUGGCAGACCUGUGGGCUUCAGCCUCGGGGCCGGGGCAUGCCUGCCACCCCCUGACAAAAACAGGUUCCACAGUGCUACCCUUGCUUCCUGCCCCUUGAGGUGGG | 0.289
CCUCCAGAGGGUGCGCUCAGAGACACGGGCAAGCAUGCCUCUUCCCUUCCCUGGAGAGAAAGUGUGUGAUUUCUCUCCCACCUCCUUCCCCCCACCAGACCUUUGCUGGG | 1.66

Excerpt of the above (series 1):
Oligonucleotide | fitted relative affinity [z-score]
TTTCATATATATATGAATATGTGCTAG | 2.24
TTAGGTTTCGGTCCCGGTTAGTGCTAG | 5.25
TTAGGATTGCTACTGCTTTAGTGCTAG | 0.0597
GACGGTATCGGGTATCGGGAAGTGCTA | -0.122
TCATTCCTCTTTCTTTGACTGTGCTAG | 2.68
GACTGACTGGACTTTCGGGACGTGCTA | 2.32
TTAGGTATCGGTTTCGGTTAGTGCTAG | 7.49
TCAGGTTTCGGTTTCGGTTAGTGCTAG | 16.6
